Measured values collected from several papers.
Several values in a cell are separate wells, animals, samples, runs or records. ± gives the spread as reported.

For `CCCC[C@H](NC(=O)CNC(=O)CNC(=O)CN1CCN(CC(=O)O)CCN(CC(=O)O)CCN(CC(=O)O)CC1)C(=O)N[C@H]1CC(=O)NCCCC[C@@H](C(N)=O)NC(=O)[C@H](Cc2c[nH]c3ccccc23)NC(=O)[C@H](CCCNC(=N)N)NC(=O)[C@@H](Cc2ccccc2)NC(=O)[C@H](Cc2c[nH]cn2)NC1=O` [gallium-67 labelled], “tumour to tissue ratio” read 23.4 (female C57 mice, B16/F1 melanoma; intravenous, 0.037 MBq, 24 h; reference: tumour over lung).
For `COc1ccc(Nc2nc(Nc3ccc(OCCOCC[18F])cc3)ncc2Br)cc1`, the uptake ratio was 1.94 (ICR mice, S180 tumour; intravenous, 370 kBq, 30 min; reference: tumour over blood).
`NC(=O)/C=C/c1cccc(S(=O)(=O)Nc2ccccc2)c1` — result for “Cmax metabolic ratio”: 0.0522 (human, normal liver function, plasma; intravenous, 400 mg/m^2 belinostat, cycle 1 day -7, geometric mean; reference: metabolite over belinostat).
The MRT(0-inf) of `N=C(N)NCCC[C@@H]1NC(=O)[C@H](Cc2c[nH]c3ccccc23)NC(=O)[C@@H](CC2CCCCC2)NC(=O)[C@@H]2CCCN2C(=O)[C@@H](NC(=O)CCc2ccccc2)CCCNC1=O` is reported as 2.45 h (C57BL/6J mouse, plasma spinal cord; intravenous, 1 mg/kg single dose).
`CC(C)c1cnc(-c2cc(Cl)ccc2F)cc1Nc1ccncc1C(=O)NC(CO)CO` — result for “patients with ALT increase”: 9.5% (patients, phase I monotherapy; oral, dose not given, grade 3).
The Km of `O=C(O[C@@H]1Cc2c(O)cc(O)cc2O[C@@H]1c1cc(O)c(O)c(O)c1)c1cc(O)c(O)c(O)c1` is reported as 0.17 ± 0.04 µM (methylation, substrate; human liver cytosol; 10 min, pH 7.4).
`C=CC(=O)Nc1cc(Nc2nccc(-c3cn(C)c4ccccc34)n2)c(OCC(F)(F)F)nc1N(C)CCNC` — result for “remaining parent compound”: 62% (LC-MS; human liver microsomes; 3 µM, 60 min, added: ticlopidine 24 µM; reference: no inhibitor).
With `CC1(C)C(=CC=C(C=CC2=[N+](CCC[N+](C)(C)C)c3ccc(S(=O)(=O)[O-])cc3C2(C)C)CCC(=O)[O-])N(CCC[N+](C)(C)C)c2ccc(S(=O)(=O)[O-])cc21` the absorbance maximum was 642 nm (100% serum; pH 7.4).
With `CC(C)(Sc1cc[n+]([O-])cc1-c1ccc(C#N)c2ccccc12)C(=O)OC1OC(C(=O)O)C(O)C(O)C1O` (stereo not drawn) the AUC(0-inf) ratio was 627% (plasma; oral, 15 mg, severe renal impairment; reference: impaired over normal renal function).
With `O=C1CCc2ccc(NS(=O)(=O)c3cccc(Oc4ccccc4)c3)cc2N1` the oral bioavailability was 38% (mouse C57BL/6J, plasma; oral, 3 mg/kg).
The helicity of `CC[C@H](C)[C@H](NC(=O)[C@H](Cc1ccccc1)NC(=O)[C@H](CN)NC(=O)[C@H](CCCNC(=N)N)NC(=O)[C@H](Cc1ccccc1)NC(=O)[C@H](Cc1ccccc1)NC(=O)[C@H](CCCCN)NC(=O)[C@H](CO)NC(=O)[C@H](CC(C)C)NC(=O)[C@H](CCCNC(=N)N)NC(=O)[C@H](CCSC)NC(=O)[C@H](C)N)C(=O)N[C@@H](CC(C)C)C(=O)N[C@@H](CCN)C(=O)N[C@@H](CCCNC(=N)N)C(=O)N[C@@H](CCCCN)C(=O)N[C@@H](CCCCN)C(=O)O` is reported as 4.2% (circular dichroism; 20% TFE in PBS; 200 µM, pH 7.4, 25 °C).
`CCCN(c1ccc(C(=O)NCCC(=O)O)cc1)S(=O)(=O)c1cc(C)c(-c2ccc(C(C)(C)C)cc2)c(C)c1`: “daily food intake” “no effect” (mouse, HFD-induced obese; oral, 50 mg/kg once daily, 6 weeks).
`CCCCCCCCCCCCCCCC(=O)N[C@@H](CCCCN)C(=O)N[C@@H](CCCCN)C(=O)N[C@@H](CO)C(=O)N[C@@H](CCCNC(=N)N)C(=O)N[C@@H](C)C(=O)N[C@@H](CC(C)C)C(=O)N[C@@H](Cc1ccccc1)C(N)=O` gave a prothrombin time of 11.7 ± 0.2 s (cynomolgus monkey, male; 3 mg/kg, day 5).
For `CN1CCC[C@]1(C)/C=C/S(=O)(=O)NC(=O)Nc1c2c(cc3c1CCC3)CCC2`, “amount recovered in urine” read 34.6 mg (human, urine; oral, 50 mg single dose).
With `C/C=C/CNC(=N)NCCCCCCCCN1CCCc2cc(Cl)ccc2COc2ccccc2CNC(=N)NC1=O` the Papp was less than 0.01 ×10⁻⁶ cm/s (PAMPA; 500 µM, 5 h, pH 7.4).
`CCCC[C@@H]1NC(=O)[C@@H](NC(=O)[C@H](CCC(=O)O)NC(=O)CNC(=O)CN2CCN(CC(=O)O)CCN(CC(=O)O)CCN(CC(=O)O)CC2)CCCCNC(=O)C[C@@H](C(N)=O)NC(=O)[C@H](C(C)C)NC(=O)[C@@H]2CCCN2C(=O)[C@H](CCCNC(=N)N)NC(=O)CNC(=O)[C@H](Cc2c[nH]c3ccccc23)NC(=O)[C@H](CCCNC(=N)N)NC(=O)[C@@H](Cc2ccccc2)NC(=O)[C@H](Cc2c[nH]cn2)NC(=O)[C@H](CCC(=O)O)NC1=O` [gallium-67 labelled] has a tissue uptake of 0.2 ± 0.15 %ID/g (C57 mice, B16/F1 flank melanoma, skin; intravenous, 0.037 MBq/mouse, 4 h).
For `COC(=O)Cn1c2ccc([N+](=O)[O-])cc2c(=O)n1Cc1ccccc1`, the CC50 was 171 ± 22.1 µM (resazurin; peritoneal macrophages, BALB/c mice; 48 h, 10% FBS).
Under “mean absorbed dose”, `NC12CNCCNCC(NCc3ccc(CNC(=O)CCCC(=O)NCc4ccc(-c5nncnn5)cc4)cc3)(CNCCNC1)CNCCNC2.[64Cu+2]` is recorded as 0.0326 rad/mCi (OLINDA dosimetry; lungs; 48 h pretargeting interval, added: huA33-TCO pretargeting).
With `CCc1c2c(nc3ccc(O)cc13)-c1cc3c(c(=O)n1C2)COC(=O)[C@]3(O)CC` the Cmax was 652 ng/mL (human patients, plasma; intravenous, 177 mg/m^2 of parent drug).
For `CN(Cc1ccc(F)cc1)Cc1cc(=O)oc2cc(O)ccc12`, “remaining intact compound” read greater than 99% (HepG2 cell medium; 0.5 mM, 30 min).
`Cc1ccc(OCC(=O)N(Cc2cccs2)c2ccn[nH]2)cc1` has a Cmax of 2.62 ng/mL (male Sprague-Dawley rat, plasma; oral, 10 mg/kg, single dose).
With `CC1=C(/C=C/C(=O)N2CCN(C(N)=O)CC2)C(C)(C)CCC1` the Cmax was 23.7 nmol/g (male mice, retina; oral, 40 mg/kg).
`O=C(CCc1ccc(CNC(C(=O)OC2CCCC2)C2CCCCC2)cn1)NO` (stereo not drawn) — result for “accumulation ratio AUC”: 1.41 (healthy male humans; oral, 40 mg once daily, 7 days, median; reference: day 7 over day 1).
For `C#CCOc1ccc(/C=C2\SC(=O)N(CC(=O)NCc3ccccc3)C2=O)cc1`, the correlation volume was 1830 cm³/mol (inverse Kirkwood-Buff integrals; binary solvent mixture; concentration not given, 298.15 K, mole fraction x1 0.10).
Under “distribution volume (VT)”, `COC(=O)c1ccc(-c2cn(Cc3cc(Cl)ccc3O[11CH3])nn2)cc1` is recorded as 0.59 mL/cm³ (PET two-tissue compartment model; rhesus monkey, basal ganglia; dose not given).
`Cn1c(=O)oc2ccc(-c3ccc(CC(C#N)NC(=O)C4CNCCCO4)c(F)c3)cc21` (stereo not drawn): “mouth ulceration incidence” 0% (human; oral, 10 mg once daily, treatment-related AE, multiple ascending dose).
Under “organ absorbed dose”, `O=C([O-])CN1CCN(CC(=O)[O-])CCN(CC(=O)NCC2CCC(C(=O)NC(Cc3ccc4ccccc4c3)C(=O)NCCCCC(NC(=O)NC(CCC(=O)O)C(=O)O)C(=O)O)CC2)CCN(CC(=O)[O-])CC1.[44Sc+3]` (stereo not drawn) is recorded as 0.03 mSv/MBq and 0.085 mSv/MBq and 0.097 mSv/MBq (PET/CT dosimetry, OLINDA/EXM; human, liver).

For quick reference, copied from above:
With `CCc1c2c(nc3ccc(O)cc13)-c1cc3c(c(=O)n1C2)COC(=O)[C@]3(O)CC` the Cmax was 652 ng/mL (human patients, plasma; intravenous, 177 mg/m^2 of parent drug).
For `CN(Cc1ccc(F)cc1)Cc1cc(=O)oc2cc(O)ccc12`, “remaining intact compound” read greater than 99% (HepG2 cell medium; 0.5 mM, 30 min).
